Measurements from different studies.
Parts stem from different laboratories: compare values within a part only.
UniProt P22607, sequence (whole entry, looked up): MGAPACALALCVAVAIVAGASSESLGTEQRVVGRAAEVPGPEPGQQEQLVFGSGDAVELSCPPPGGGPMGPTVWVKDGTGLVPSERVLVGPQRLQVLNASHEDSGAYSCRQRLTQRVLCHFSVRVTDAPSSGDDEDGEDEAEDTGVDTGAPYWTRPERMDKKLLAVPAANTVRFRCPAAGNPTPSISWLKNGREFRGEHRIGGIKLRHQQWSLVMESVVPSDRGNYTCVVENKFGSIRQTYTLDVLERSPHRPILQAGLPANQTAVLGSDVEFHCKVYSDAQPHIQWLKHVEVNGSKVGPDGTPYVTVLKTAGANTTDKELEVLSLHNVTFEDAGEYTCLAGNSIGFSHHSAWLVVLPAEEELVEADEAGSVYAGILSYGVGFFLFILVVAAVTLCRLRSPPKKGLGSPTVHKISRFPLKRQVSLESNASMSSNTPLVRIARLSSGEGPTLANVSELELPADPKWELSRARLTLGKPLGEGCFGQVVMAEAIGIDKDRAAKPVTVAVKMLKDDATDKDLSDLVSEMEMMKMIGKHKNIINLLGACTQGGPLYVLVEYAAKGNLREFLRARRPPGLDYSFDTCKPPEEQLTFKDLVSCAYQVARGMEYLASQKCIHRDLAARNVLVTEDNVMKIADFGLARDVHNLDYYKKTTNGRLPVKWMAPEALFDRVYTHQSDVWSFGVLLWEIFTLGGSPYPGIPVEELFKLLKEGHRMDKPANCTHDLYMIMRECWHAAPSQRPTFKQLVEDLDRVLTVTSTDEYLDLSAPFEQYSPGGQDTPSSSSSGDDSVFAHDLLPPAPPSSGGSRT
UniProt Q15831, sequence (whole entry, looked up): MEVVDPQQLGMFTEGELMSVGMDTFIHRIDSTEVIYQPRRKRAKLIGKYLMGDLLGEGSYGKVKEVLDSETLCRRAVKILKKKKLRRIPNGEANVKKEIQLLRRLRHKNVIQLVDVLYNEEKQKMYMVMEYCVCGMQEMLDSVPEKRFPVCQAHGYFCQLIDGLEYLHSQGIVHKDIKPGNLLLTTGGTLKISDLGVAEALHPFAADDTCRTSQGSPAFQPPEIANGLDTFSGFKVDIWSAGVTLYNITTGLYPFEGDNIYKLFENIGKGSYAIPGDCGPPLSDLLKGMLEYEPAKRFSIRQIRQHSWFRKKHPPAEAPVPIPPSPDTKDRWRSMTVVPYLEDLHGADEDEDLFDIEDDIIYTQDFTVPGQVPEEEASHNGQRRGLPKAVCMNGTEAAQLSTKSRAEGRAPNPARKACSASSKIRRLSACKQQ
UniProt P32298, sequence (whole entry, looked up): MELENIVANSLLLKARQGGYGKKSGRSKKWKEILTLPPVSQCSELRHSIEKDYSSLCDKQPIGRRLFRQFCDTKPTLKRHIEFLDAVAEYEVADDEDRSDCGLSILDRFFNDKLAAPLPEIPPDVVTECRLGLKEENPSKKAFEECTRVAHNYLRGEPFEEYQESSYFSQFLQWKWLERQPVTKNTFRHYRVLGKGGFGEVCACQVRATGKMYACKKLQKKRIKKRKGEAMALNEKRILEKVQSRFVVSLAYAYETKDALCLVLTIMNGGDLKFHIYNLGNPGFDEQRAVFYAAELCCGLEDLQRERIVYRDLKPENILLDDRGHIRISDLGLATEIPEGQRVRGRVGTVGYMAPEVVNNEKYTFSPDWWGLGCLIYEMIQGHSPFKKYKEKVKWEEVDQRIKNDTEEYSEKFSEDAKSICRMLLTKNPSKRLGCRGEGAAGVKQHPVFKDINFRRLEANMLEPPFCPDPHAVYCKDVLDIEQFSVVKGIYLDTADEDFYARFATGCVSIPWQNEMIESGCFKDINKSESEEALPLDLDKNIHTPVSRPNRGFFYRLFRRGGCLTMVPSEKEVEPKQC
UniProt Q8TD19, sequence (whole entry, looked up): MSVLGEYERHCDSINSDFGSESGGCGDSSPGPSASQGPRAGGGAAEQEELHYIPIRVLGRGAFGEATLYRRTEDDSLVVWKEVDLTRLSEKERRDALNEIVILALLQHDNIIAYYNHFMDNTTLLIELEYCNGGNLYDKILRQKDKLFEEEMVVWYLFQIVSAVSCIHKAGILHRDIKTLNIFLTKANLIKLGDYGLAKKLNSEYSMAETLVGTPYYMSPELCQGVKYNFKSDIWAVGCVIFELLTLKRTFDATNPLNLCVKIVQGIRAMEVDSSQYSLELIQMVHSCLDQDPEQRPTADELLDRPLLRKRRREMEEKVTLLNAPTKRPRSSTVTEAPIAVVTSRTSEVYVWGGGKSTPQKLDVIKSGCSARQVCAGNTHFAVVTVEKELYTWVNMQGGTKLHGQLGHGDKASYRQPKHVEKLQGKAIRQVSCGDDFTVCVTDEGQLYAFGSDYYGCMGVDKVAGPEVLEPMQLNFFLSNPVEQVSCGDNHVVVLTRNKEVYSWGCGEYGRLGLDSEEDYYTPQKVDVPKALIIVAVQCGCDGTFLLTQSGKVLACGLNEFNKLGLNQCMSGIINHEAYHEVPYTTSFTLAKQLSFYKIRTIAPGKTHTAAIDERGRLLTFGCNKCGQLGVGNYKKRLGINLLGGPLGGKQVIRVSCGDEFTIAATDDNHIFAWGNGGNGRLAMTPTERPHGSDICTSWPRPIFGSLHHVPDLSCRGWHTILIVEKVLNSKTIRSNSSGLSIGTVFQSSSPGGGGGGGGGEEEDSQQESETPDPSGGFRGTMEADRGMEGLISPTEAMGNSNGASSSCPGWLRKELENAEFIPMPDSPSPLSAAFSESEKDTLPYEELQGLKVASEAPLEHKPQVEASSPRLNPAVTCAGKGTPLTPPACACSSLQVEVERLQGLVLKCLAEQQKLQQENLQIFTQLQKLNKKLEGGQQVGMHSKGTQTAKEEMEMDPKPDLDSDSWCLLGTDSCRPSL
UniProt P16234, sequence (whole entry, looked up): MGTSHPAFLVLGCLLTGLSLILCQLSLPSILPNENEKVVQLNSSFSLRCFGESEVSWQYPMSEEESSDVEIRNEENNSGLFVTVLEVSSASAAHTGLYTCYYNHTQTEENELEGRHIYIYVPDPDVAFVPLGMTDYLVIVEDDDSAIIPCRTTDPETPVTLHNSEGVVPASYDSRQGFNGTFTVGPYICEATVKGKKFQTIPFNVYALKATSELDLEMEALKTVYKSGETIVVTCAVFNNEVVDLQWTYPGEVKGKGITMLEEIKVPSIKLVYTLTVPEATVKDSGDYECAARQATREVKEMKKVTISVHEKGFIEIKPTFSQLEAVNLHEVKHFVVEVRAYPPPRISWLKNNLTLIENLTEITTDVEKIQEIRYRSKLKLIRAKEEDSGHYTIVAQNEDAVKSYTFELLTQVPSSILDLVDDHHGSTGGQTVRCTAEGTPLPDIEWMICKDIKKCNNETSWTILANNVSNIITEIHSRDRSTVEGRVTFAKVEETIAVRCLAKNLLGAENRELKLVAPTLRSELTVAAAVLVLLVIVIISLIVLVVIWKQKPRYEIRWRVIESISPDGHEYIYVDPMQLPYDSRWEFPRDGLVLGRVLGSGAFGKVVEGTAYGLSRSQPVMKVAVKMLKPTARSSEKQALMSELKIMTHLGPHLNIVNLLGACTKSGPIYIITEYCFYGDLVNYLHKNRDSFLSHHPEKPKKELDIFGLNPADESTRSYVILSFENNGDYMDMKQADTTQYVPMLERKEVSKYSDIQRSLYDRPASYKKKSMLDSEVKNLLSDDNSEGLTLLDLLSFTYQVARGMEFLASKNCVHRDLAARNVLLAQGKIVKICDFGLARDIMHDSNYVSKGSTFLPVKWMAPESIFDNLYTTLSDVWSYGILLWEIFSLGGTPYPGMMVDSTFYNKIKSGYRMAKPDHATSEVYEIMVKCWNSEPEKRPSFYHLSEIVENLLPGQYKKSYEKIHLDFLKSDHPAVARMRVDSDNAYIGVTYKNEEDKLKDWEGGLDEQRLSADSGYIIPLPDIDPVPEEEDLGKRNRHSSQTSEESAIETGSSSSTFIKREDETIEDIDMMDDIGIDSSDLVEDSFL
UniProt Q86UX6, sequence (whole entry, looked up): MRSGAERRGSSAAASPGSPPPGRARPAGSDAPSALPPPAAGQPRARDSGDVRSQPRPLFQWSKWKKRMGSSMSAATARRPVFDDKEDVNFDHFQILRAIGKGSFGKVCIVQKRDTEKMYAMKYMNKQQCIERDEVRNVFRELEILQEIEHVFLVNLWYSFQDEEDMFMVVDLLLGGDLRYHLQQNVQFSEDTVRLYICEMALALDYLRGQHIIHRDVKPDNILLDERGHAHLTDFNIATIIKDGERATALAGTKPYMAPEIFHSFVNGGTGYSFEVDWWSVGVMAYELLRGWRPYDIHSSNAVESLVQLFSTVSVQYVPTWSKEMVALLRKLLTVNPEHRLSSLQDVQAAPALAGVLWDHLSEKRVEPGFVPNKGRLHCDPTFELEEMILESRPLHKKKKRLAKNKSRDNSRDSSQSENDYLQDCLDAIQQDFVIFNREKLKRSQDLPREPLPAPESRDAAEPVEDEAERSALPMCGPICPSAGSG

Sample 1 — read-out: enzyme activity; action: inhibitor; concentration: 0.5 µM; baseline: control
Target: Inhibitor of nuclear factor kappa-B kinase subunit beta (IKBKB, Homo sapiens, UniProt O14920)
Residues (O14920 1-756): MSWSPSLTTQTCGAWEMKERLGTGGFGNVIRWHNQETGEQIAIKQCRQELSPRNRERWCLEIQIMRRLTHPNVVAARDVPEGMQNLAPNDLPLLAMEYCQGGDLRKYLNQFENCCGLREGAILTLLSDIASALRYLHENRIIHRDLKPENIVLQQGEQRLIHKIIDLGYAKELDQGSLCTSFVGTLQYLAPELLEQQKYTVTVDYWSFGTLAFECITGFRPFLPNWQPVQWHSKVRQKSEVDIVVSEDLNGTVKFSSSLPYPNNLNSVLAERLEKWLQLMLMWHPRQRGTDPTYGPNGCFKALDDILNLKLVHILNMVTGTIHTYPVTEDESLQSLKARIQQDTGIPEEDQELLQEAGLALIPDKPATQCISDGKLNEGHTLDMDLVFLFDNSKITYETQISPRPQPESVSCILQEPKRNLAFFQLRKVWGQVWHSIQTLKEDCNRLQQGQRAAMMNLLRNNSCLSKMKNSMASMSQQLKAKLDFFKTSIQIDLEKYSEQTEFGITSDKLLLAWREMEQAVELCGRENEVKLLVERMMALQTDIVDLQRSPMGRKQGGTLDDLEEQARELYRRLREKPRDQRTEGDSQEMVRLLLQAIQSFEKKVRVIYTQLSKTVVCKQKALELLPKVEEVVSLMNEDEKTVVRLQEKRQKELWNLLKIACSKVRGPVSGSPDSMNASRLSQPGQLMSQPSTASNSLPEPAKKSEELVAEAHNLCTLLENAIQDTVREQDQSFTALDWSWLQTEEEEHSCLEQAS
Structure (SMILES) | remaining activity [%]
CO[C@H]1C[C@@H]2CC[C@@H](C)[C@@](O)(O2)C(=O)C(=O)N2CCCC[C@H]2C(=O)O[C@H]([C@H](C)C[C@@H]2CC[C@@H](O)[C@H](OC)C2)CC(=O)[C@H](C)/C=C(\C)[C@@H](O)[C@@H](OC)C(=O)[C@H](C)C[C@H](C)/C=C/C=C/C=C/1C | 109
Nc1ncnc2n[nH]c(Nc3ccc(F)cc3)c12 | 105
O=C1NC(=O)C(c2cn(CCCn3ccnc3)c3ccccc23)=C1Nc1ccccc1 | 110
COc1ccc(CNC(=O)Nc2ncc([N+](=O)[O-])s2)cc1 | 94.9
Cc1cccc(-c2[nH]c(C(C)(C)C)nc2-c2ccc3c(c2)OCO3)n1 | 105
C#Cc1cccc(Nc2ncnc3cc(OCCOC)c(OCCOC)cc23)c1 | 83.5
O=C(Nc1cccc(Nc2cc(Nc3cccc(C(F)(F)F)c3)ncn2)c1)C1CC1 | 100
NCCNc1ncc(C(N)=O)c(Nc2cccc(C(F)(F)F)c2)n1 | 101
COc1ccc(C(=O)Nc2sc3c(c2C(N)=O)CCCC3)cc1OC | 87.6
O=C(O)c1ccc2c3c1cccc3c(=O)n1c3ccccc3nc21 | 109
N#CC(C#N)=C(N)/C(C#N)=C/c1ccc(O)cc1 | 102
Cc1nc(-c2ccccc2)c(-c2ccncc2)o1 | 105
CN(C)c1ccc(C=C2C(=O)Nc3ccccc32)cc1 | 105

Sample 2 — technique: competition protein-binding microarray; form: double-stranded DNA, one strand shown; matrix: in vitro; concentration: 2 µM; added: Pho4 competitor, 0.05 µM; reading: higher = stronger binding; constant ends, left off below: … GTCTTGATTCGCTTGACGCTGCTG
Target: Centromere-binding protein 1, full length, His-tagged (CBF1, Saccharomyces cerevisiae, UniProt P17106, residues 1-351)
UniProt P17106, sequence (whole entry, looked up): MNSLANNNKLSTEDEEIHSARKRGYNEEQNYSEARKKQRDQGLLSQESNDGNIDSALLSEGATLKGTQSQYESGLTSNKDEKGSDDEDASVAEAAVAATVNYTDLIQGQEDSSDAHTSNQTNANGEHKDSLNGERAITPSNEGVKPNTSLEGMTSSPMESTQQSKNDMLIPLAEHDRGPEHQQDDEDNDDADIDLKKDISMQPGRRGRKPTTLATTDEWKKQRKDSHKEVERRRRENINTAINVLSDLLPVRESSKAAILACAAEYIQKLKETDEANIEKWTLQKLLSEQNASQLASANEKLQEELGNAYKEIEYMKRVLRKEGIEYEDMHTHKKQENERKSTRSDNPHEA
Notes: whole 60-bp probe, lowest competitor level
Oligonucleotide | fluorescence intensity
CGAAATATTATACGTCAGGTGTATATCAAGTGCTCA | 524 a.u.
CTTGGAGCAAGCCTACACGTGTGAATATTCTACGGC | 641 a.u.
AAAGCGGTAATTTGCCTCGTGGGTGCAGATATCTAT | 97.5 a.u.
AAAGCGGTAATTTGATCAGTGGGTGCAGATATCTAT | 104 a.u.
TTGATATGTTTATGTAATAATATTTACCACCGCCAC | 92.3 a.u.
AACTTAGCACCATCGCGCGTGCATCGCTGTATGTGT | 82.3 a.u.
CTTCTGTAAATTTGCATGGTGGGTGGACGCGCCCCG | 60.7 a.u.
GTACCAAGACATCCGCACGTGGAAGATGACGCCTGC | 661 a.u.

Sample 3 — technique: competition with immobilised ligand
Compound: C[C@@H]1CN(c2cc(-c3n[nH]c4ccc(OC5(C)CC5)cc34)ncn2)C[C@H](C)O1
target | read-out | concentration | remaining binding
Serine/threonine-protein kinase STK11 (STK11, Homo sapiens, UniProt Q15831) | cell-free assay | 0.1 µM | 83%
Platelet-derived growth factor receptor alpha (PDGFRA, Homo sapiens, UniProt P16234) | cell-free assay | 0.1 µM | 75%
Serine/threonine-protein kinase Nek9 (NEK9, Homo sapiens, UniProt Q8TD19) | cell-free assay | 0.1 µM | 100%
Cyclin-dependent kinase-like 3 (CDKL3, Homo sapiens, UniProt Q8IVW4) | cell-free assay | 0.1 µM | 75%
Serine/threonine-protein kinase 32C (STK32C, Homo sapiens, UniProt Q86UX6) | cell-free assay | 0.1 µM | 89%
G protein-coupled receptor kinase 4 (GRK4, Homo sapiens, UniProt P32298) | cell-free assay | 0.1 µM | 100%
Fibroblast growth factor receptor 3 (FGFR3, Homo sapiens, UniProt P22607) | cell-free assay | 0.1 µM | 74%
Tyrosine-protein kinase ABL2 (ABL2, Homo sapiens, UniProt P42684) | cell-free assay | 0.1 µM | 73%
Mitogen-activated protein kinase 3 (MAPK3, Homo sapiens, UniProt P27361) | cell-free assay | 0.1 µM | 87%
Serine/threonine-protein kinase PAK 3 (PAK3, Homo sapiens, UniProt O75914) | cell-free assay | 0.1 µM | 83%
Serine/threonine-protein kinase ULK3 (ULK3, Homo sapiens, UniProt Q6PHR2) | cell-free assay | 0.1 µM | 78%
Receptor-type tyrosine-protein kinase FLT3, autoinhibited (FLT3, Homo sapiens, UniProt P36888) | cell-free assay | 0.1 µM | 87%
Hepatocyte growth factor receptor (MET, Homo sapiens, UniProt P08581, M1250T) | cell-free assay | 0.1 µM | 79%
Serine/threonine-protein kinase Nek7 (NEK7, Homo sapiens, UniProt Q8TDX7) | cell-free assay | 0.1 µM | 100%
Death-associated protein kinase 2 (DAPK2, Homo sapiens, UniProt Q9UIK4) | cell-free assay | 0.1 µM | 85%
cGMP-dependent protein kinase 1 (PRKG1, Homo sapiens, UniProt Q13976) | cell-free assay | 0.1 µM | 100%
Mitogen-activated protein kinase kinase kinase 13 (MAP3K13, Homo sapiens, UniProt O43283) | binding | 1 µM | 0%
Serine/threonine-protein kinase TBK1 (TBK1, Homo sapiens, UniProt Q9UHD2) | cell-free assay | 0.1 µM | 68%
Ribosomal protein S6 kinase beta-1 (RPS6KB1, Homo sapiens, UniProt P23443) | cell-free assay | 0.1 µM | 73%

Sample 4 — technique: Spec-seq; form: double-stranded DNA, one strand shown; matrix: in vitro; concentration: not given; notes: whole probe, mean of replicates; baseline: not given; reading: lower = stronger binding; constant ends, left off below: GAGTCGTCTCGTCAGCAC … CCGTAGAGCACTCAGGTC
Target: POU domain, class 5, transcription factor 1, POU domain (Pou5f1, Mus musculus, UniProt P20263, residues 131-289)
UniProt P20263, sequence (131-289, looked up): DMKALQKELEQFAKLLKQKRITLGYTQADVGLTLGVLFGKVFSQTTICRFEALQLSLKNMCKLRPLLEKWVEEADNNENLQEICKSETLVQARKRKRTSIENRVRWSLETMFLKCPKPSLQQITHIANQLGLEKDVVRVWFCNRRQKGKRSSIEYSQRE
Oligonucleotide | relative binding energy
AGACTAAT | 0.509 ln ratio
ATGCGAGG | 0.236 ln ratio
ATGCTCGA | 0.656 ln ratio
AAGCTAAT | 0.272 ln ratio
GGCCTAAT | 0.873 ln ratio
ATGCCCGC | 0.791 ln ratio
ATGCTAAA | -1.14 ln ratio
GGATTAAT | 0.241 ln ratio
